Measurements pooled from the literature.
Compare with care: the assays were run in different laboratories. ± marks the error that the study gave.
Target: Albumin (ALB, Homo sapiens, UniProt P02768)

CN1CCN(c2ccc3[nH]c(-c4ccc5[nH]c(-c6ccc(OCCCCNC(=O)c7ccc8c(c7)C7(OC8=O)c8ccc(N(C)C)cc8[Si](C)(C)c8cc(N(C)C)ccc87)cc6)nc5c4)nc3c2)CC1  Kd (binding, fluorescence titration; PBS; 1 h): 73 ± 59 µM
CN(C)c1ccc2c(-c3cc(C(=O)N4CCN(CCCOc5ccc6nccc(C(=O)NCC(=O)N7CC(F)(F)C[C@H]7C#N)c6c5)CC4)ccc3C(=O)[O-])c3ccc(=[N+](C)C)cc-3oc2c1  unbound fraction: 0.29
N#C[C@@H]1CC(F)(F)CN1C(=O)CNC(=O)c1ccnc2c(NC(=O)[C@@H](N)CCCCNC(=O)CCOCCOCCOCCOCCOCCOCCNC(=O)CN3CCN(CC(=O)[O-])CCN(CC(=O)[O-])CCN(CC(=O)[O-])CC3)cccc12.[177Lu+3]  binding to ALB (ultrafiltration; human serum albumin; concentration not given, 30 min, 37 °C, together with: albumin 45 mg/mL): decreased
CN(CCCN1CCN(C(=O)CN2CCN(CC(=O)[O-])CCN(CC(=O)[O-])CCN(CC(=O)[O-])CC2)CC1)c1ccc2nccc(C(=O)NCC(=O)N3CC(F)(F)C[C@H]3C#N)c2c1.[Lu+3]  Kd (binding, fluorescence quenching): 31.1 µM
Nc1ccc2c(c1)C(=O)N(C1CCC(=O)NC1=O)C2=O (stereo not shown)  fraction unbound (equilibrium dialysis; human serum albumin 50 mg/mL; 6 h, 37 °C): 0.839
CN1CCN(c2ccc3[nH]c(-c4ccc5[nH]c(-c6ccc(OCCCCNC(=O)c7ccc8c(c7)C7(OC8=O)c8ccc(N(C)C)cc8C(C)(C)c8cc(N(C)C)ccc87)cc6)nc5c4)nc3c2)CC1  Kd (binding, second site, fluorescence titration; PBS): > 1000 µM
Nc1ccc2c(c1)CN(C1CCC(=O)NC1=O)C2=O (stereo not shown)  fraction unbound (equilibrium dialysis; human serum albumin 50 mg/mL; 6 h, 37 °C): 0.918
Cc1cc(C)n2c1C=C1C=CC(CCC(=O)N3CCN(CCCOc4ccc5nccc(C(=O)NCC(=O)N6CC(F)(F)C[C@H]6C#N)c5c4)CC3)=[N+]1[B-]2(F)F  unbound fraction: 0.09
O=C1CCC(N2Cc3ccccc3C2=O)C(=O)N1 (stereo not shown)  fraction unbound (equilibrium dialysis; human serum albumin 50 mg/mL; 6 h, 37 °C): 0.442
CC[C@H](C)[C@H](NC(=O)[C@H](Cc1ccccc1)NC(=O)[C@H](CCC(=O)O)NC(=O)[C@H](CCCCN)NC(=O)[C@H](C)NC(=O)[C@H](C)NC(=O)[C@H](CCC(N)=O)NC(=O)CNC(=O)[C@H](CCC(=O)O)NC(=O)[C@H](CC(C)C)NC(=O)[C@H](Cc1ccc(O)cc1)NC(=O)[C@H](CO)NC(=O)[C@H](CO)NC(=O)[C@@H](NC(=O)[C@H](CC(=O)O)NC(=O)[C@H](CO)NC(=O)[C@@H](NC(=O)[C@H](Cc1ccccc1)NC(=O)[C@@H](NC(=O)CNC(=O)[C@H](CCC(=O)O)NC(=O)[C@H](C)NC(=O)[C@@H](N)Cc1c[nH]cn1)[C@@H](C)O)[C@@H](C)O)C(C)C)C(=O)N[C@@H](C)C(=O)N[C@@H](Cc1c[nH]c2ccccc12)C(=O)N[C@@H](CC(C)C)C(=O)N[C@H](C(=O)N[C@@H](CCCCN)C(=O)NCC(=O)N[C@@H](CCCNC(=N)N)C(N)=O)C(C)C  Kd (binding, SPR; pH 7.4): 180 µM

A few entries again:
CN1CCN(c2ccc3[nH]c(-c4ccc5[nH]c(-c6ccc(OCCCCNC(=O)c7ccc8c(c7)C7(OC8=O)c8ccc(N(C)C)cc8C(C)(C)c8cc(N(C)C)ccc87)cc6)nc5c4)nc3c2)CC1  Kd (binding, second site, fluorescence titration; PBS): > 1000 µM
